Measured values of several laboratories.
± gives the spread as reported.
Sequence of UniProt Q9UNQ0 (whole entry, looked up): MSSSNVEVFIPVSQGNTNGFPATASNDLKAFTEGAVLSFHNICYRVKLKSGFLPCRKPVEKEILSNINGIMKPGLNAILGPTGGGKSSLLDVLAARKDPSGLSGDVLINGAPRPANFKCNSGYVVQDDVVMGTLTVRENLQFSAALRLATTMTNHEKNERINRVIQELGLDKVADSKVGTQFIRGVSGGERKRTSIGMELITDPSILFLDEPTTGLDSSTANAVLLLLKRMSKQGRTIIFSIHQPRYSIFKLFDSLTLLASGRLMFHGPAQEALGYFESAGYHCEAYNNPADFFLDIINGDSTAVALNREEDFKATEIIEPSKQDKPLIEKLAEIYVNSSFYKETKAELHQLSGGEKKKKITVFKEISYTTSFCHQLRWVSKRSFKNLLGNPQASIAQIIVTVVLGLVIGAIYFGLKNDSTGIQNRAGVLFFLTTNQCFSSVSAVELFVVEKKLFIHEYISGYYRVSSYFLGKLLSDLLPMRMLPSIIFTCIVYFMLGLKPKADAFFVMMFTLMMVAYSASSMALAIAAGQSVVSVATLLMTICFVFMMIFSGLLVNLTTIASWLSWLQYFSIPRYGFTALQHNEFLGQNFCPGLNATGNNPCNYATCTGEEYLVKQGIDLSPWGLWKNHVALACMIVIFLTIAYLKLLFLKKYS

Structure (SMILES) = O=C(N/N=C/c1cc[n+](Cc2ccccc2)c2ccccc12)N/N=C/c1cc[n+](Cc2ccccc2)c2ccccc12; target or system = MYC parallel G4 DNA; assay = FRET melting; conditions = 1 µM, DNA 0.2 µM; endpoint = ΔTm; result = 5.7 ± 0.5 °C
Structure (SMILES) = N#Cc1cccc(-c2ccc(=O)n(Cc3cccc(-c4ncc(OCC5CCN(CC(=O)N6CCN(c7ccc8c(c7)C(=O)N(C7CCC(=O)NC7=O)C8=O)CC6)CC5)cn4)c3)n2)c1 (stereo not shown); target or system = Caco-2; assay = transwell monolayer; conditions = 2 µM, 120 min, pH 7.4, 0.1% DMSO, together with: Ko143 10 µM; endpoint = efflux ratio; result = 6.9
Structure (SMILES) = CNc1nc(N)nc2c1ncn2[C@@H]1O[C@H](CO[P@](=O)(O)N[C@@H](C)C(=O)O)[C@@H](O)[C@@]1(C)F; target or system = ABCG2 (Homo sapiens, UniProt Q9UNQ0); assay = bidirectional transport; test system = MDCKII transfected with human BCRP; conditions = 10 µM, together with: Ko143 1 µM; endpoint = Papp A to B; result = 1.15 ± 0.15 ×10⁻⁶ cm/s
Structure (SMILES) = CC(C)OCCOCc1ccc(OCC(O)CN(N=O)C(C)C)cc1 (stereo not shown); target or system = Escherichia coli; assay = Ames test; test system = WP2 uvrA; conditions = 500 µg/plate, 30 % hamster S9; how to read = baseline: solvent control; endpoint = revertant fold increase; result = 1 fold
Structure (SMILES) = C=C(NC(=O)c1csc(-c2nc3c(cc2O)-c2nc(cs2)C(=O)NC(C(C)O)C(=O)NC(=C(C)OC)c2nc(cs2)C(=O)NC2c4nc(cs4)C(=O)NC(COC(=O)c4c5c6c(cccc6n4O)COC(=O)C(OC4CC(C)(O)C(N(C)C)C(C)O4)C2OC5)c2nc-3cs2)n1)C(N)=O (stereo not shown); test system = cynomolgus monkey, both sexes, plasma; conditions = intravenous infusion, 3 mg/kg single dose; endpoint = volume of distribution; result = 1020 mL/kg
Structure (SMILES) = CCN(CC)CC#CCNc1ccnc2cc(Cl)ccc12; target or system = Salmonella typhimurium; assay = mini-Ames test; test system = TA102; conditions = 1000.0 µg/well, without S9; endpoint = revertants per well; result = 49
Structure (SMILES) = N#C[C@@H]1CC(F)(F)CN1C(=O)CNC(=O)c1ccnc2c(NC(=O)[C@H](CCCCNC(=O)CCOCCOCCOCCOCCOCCOCCNC(=O)CN3CCN(CC(=O)[O-])CCN(CC(=O)[O-])CCN(CC(=O)[O-])CC3)NC(=O)CCCc3ccc(I)cc3)cccc12.[177Lu+3]; target or system = U-87 MG tumour model; test system = host not given, muscle; conditions = 24 h, tumour-bearing; endpoint = tracer uptake; result = 0.94 %ID/g
Structure (SMILES) = CNC(=O)C1CCCN(C(=O)C2CC3CCC2N3C(=O)[C@@H]2C[C@@H](O)CN2C(=O)NCc2cccc(Cl)c2F)C1 (mixture of isomers); target or system = CYP3A4 (human); assay = inhibitor, time-dependent inhibition; conditions = 0.206 µM, preincubated with NADPH, together with: testosterone substrate; how to read = baseline: negative control; endpoint = remaining activity; result = 100%
Structure (SMILES) = O=C(N/N=C/c1cc[n+](Cc2ccccc2)c2ccccc12)c1ccc2ccc3ccc(C(=O)N/N=C/c4cc[n+](Cc5ccccc5)c5ccccc45)nc3c2n1; target or system = hp2 hairpin duplex DNA; assay = FRET melting; conditions = 1 µM, together with: ds26 10 µM; endpoint = ΔTm; result = 0.8 ± 0.2 °C
Structure (SMILES) = CN(C)S(=O)(=O)c1ccccc1-c1ccc2ncnc(Nc3ccc(OCc4cccc(F)c4)c(Cl)c3)c2c1; target or system = Leishmania major; assay = intracellular amastigote growth, luciferase; test system = RAW264.7 macrophages; endpoint = EC50; result = 18 µM
Structure (SMILES) = CC(C)Cc1ccc(C(C)C(=O)N[C@@H](CCCCNC(=O)CCOCCOCCOCCOCCOCCOCCNC(=O)CN2CCN(CC(=O)[O-])CCN(CC(=O)[O-])CCN(CC(=O)[O-])CC2)C(=O)Nc2cccc3c(C(=O)NCC(=O)N4CC(F)(F)C[C@H]4C#N)ccnc23)cc1.[177Lu+3] (stereo partly shown); target or system = U-87 MG tumour model; test system = host not given, muscle; conditions = 4 h, tumour-bearing; endpoint = tracer uptake; result = 3 %ID/g
Structure (SMILES) = CN1CCN(S(=O)(=O)c2ccc(-c3ccc4ncnc(Nc5ccc(OCc6ccccc6)c(Cl)c5)c4c3)cc2)CC1; target or system = Leishmania major; assay = intracellular amastigote growth, luciferase; test system = RAW264.7 macrophages; endpoint = EC50; result = 2.2 µM
Structure (SMILES) = O=C1C2CC3CC1CC(C(=O)N1CCN(c4ccc([N+](=O)[O-])c5ncccc45)CC1)(C3)C2; target or system = Escherichia coli; assay = Ames test; test system = WP2 uvrA pKM101; conditions = 0.05 µg/well, without S9; how to read = baseline: vehicle; endpoint = revertant fold increase; result = 1

Repeated from above:
Structure (SMILES) = CC(C)OCCOCc1ccc(OCC(O)CN(N=O)C(C)C)cc1 (stereo not shown); target or system = Escherichia coli; assay = Ames test; test system = WP2 uvrA; conditions = 500 µg/plate, 30 % hamster S9; how to read = baseline: solvent control; endpoint = revertant fold increase; result = 1 fold
